Published values pooled from the literature.
Lines come from different studies, so protocols differ.
Organism: Trypanosoma brucei

COc1cc2c(cc1-c1c(C)noc1C)ncc1[nH]c(=O)n([C@H](C)c3ccccn3)c12
reporter fluorescence (flow cytometry; EP1/GFP reporter; 5 µM, 3 d): increased

Cc1nc(C(=O)N2CCC[C@H]2C(=O)N[C@@H](CCC(=O)O)C(=O)N[C@@H](CC(C)C)C(=O)NC(C)(C)C(=O)N[C@@H](CC(C)C)C(=O)N[C@@H](CC(C)C)C(=O)NC(C)(C)C(=O)NC(C)(C)C(=O)NCCC(=O)NC2(CN(C)C)CCC2)co1
IC50 (parasite growth, resazurin; 72 h): > 1 µM

O=C(Nc1ccc2c(c1)CN(c1ccc(Cl)c(Cl)c1)C2=O)N1CCN(c2ccc(Cl)cc2)CC1
IC50 (parasite growth, resazurin; RHODESIENSE): 0.4 µM

Fc1ccc2[nH]c(NCCCNCc3cc(Cl)cc(Cl)c3)nc2c1
EC50 ratio (bloodstream form; reference: compound over 2): 2 fold

COc1cc(O)c(-c2ccc(OC)c3c(OC)cc(C)cc23)c2c1[C@H](C)N(C)[C@H](C)C2
IC50 (parasite growth; RHODESIENSE STIB900; trypomastigote): 15.1 µM

CC(=O)N[C@@H]1[C@@H](OC(C)=O)[C@H](OC(C)=O)[C@@H](COC(C)=O)O[C@H]1[Se][Se][C@@H]1O[C@H](COC(C)=O)[C@@H](OC(C)=O)[C@H](OC(C)=O)[C@H]1NC(C)=O
inhibition (parasite growth, flow cytometry; 5 µM, 24 h): 37 to 97%

COc1cc(O)c(-c2ccc(OC)c3c(O)cc(C)c(-c4cc(-c5c(O)cc(OC)c6c5C[C@@H](C)N[C@@H]6C)c5cc(C)cc(OC)c5c4O)c23)c2c1[C@@H](C)N(C)[C@H](C)C2
IC50 (parasite growth; RHODESIENSE STIB900; trypomastigote): 0.211 µM

O=C(Nc1ccc2c(c1)CN(c1ccc(F)c(F)c1)C2=O)N1CCN(c2ccc(Cl)cc2)CC1
IC50 (parasite growth, resazurin; RHODESIENSE): 1.8 µM

CC(C)OC(=O)/C=C/c1ccc(O)c(O)c1
IC50 (parasite growth; RHODESIENSE STIB900; 70 h, trypomastigote): 1 µM

CC(=O)OC[C@H]1O[C@@H]([Se][Se][C@@H]2O[C@H](COC(C)=O)[C@@H](OC(C)=O)[C@H](OC(C)=O)[C@H]2OC(C)=O)[C@H](OC(C)=O)[C@@H](OC(C)=O)[C@@H]1OC(C)=O
inhibition (parasite growth, flow cytometry; 5 µM, 24 h): 97%

Cc1ccc(N2Cc3cc(NC(=O)N4CCN(c5ccc(F)cc5)CC4)ccc3C2=O)cc1
IC50 (parasite growth, resazurin; RHODESIENSE): 0.1 µM

CCCOC(=O)/C=C/c1ccc(O)c(O)c1
IC50 (parasite growth; RHODESIENSE STIB900; 70 h, trypomastigote): 0.79 µM

Cc1ccc(N2Cc3cc(NC(=O)N4CCN(c5cccc(C(F)(F)F)c5)CC4)ccc3C2=O)cc1
IC50 (parasite growth, resazurin; RHODESIENSE): 0.04 µM

O=C(Nc1cc2nc(-c3ccc(F)c(F)c3)c(CN3CCN(c4ccc(F)cc4)CC3)n2cn1)N1CC[C@H](F)C1
IC50 (Squib 427, suramin-sensitive; 72 h): 0.95 µM

Repeated from above:
O=C(Nc1cc2nc(-c3ccc(F)c(F)c3)c(CN3CCN(c4ccc(F)cc4)CC3)n2cn1)N1CC[C@H](F)C1
IC50 (Squib 427, suramin-sensitive; 72 h): 0.95 µM
